Measurements collected from several papers.
Lines come from different studies, so protocols differ. ± marks the error that the study gave.

Compound | tested on | test | system | conditions | measurement | result
Cc1ccc2c(c1)C(=O)[C@]1(O)CCN(c3ccc4nc(C)ccc4c3)C1=N2 | glioblastoma cell lines (human, mouse) | cytotoxicity, CellTiter-Glo | – | 120 h | EC50 | 1000 to 5000 nM
CC[C@H](C)[C@H](NC(=O)[C@H](CCC(=O)O)NC(=O)[C@H](CC(=O)O)NC(=O)CNC(=O)[C@H](CC(C)C)NC(=O)[C@H](CCCNC(=N)N)NC(=O)[C@H](CCC(N)=O)NC(=O)[C@H](CC(C)C)NC(=O)[C@H](Cc1c[nH]cn1)NC(=O)[C@H](CCC(N)=O)NC(=O)[C@@H](NC(=O)[C@H](CC(C)C)NC(=O)[C@H](Cc1c[nH]c2ccccc12)NC(=O)[C@@H](NC(=O)[C@H](CCC(=O)O)NC(=O)[C@@H]1CCCN1C(=O)[C@@H](N)CCCNC(=N)N)[C@@H](C)CC)[C@@H](C)O)C(=O)N[C@@H](CC(N)=O)C(=O)N[C@@H](C)C(=O)N[C@@H](Cc1ccc(O)cc1)C(=O)N[C@@H](Cc1ccc(O)cc1)C(=O)N[C@@H](C)C(=O)N[C@@H](CCCNC(=N)N)C(N)=O | Pfeiffer, permeabilized | mitochondrial depolarization, BH3 profiling, JC-1 | – | 3 h | EC50 | 3100 ± 2600 nM
Cc1cc(NC(=O)c2cccc(NC(=O)/C=C/CN(C)C)c2)ccc1Nc1nccc(-c2cccnc2)n1 | SH-SY5Y MKK7 ACT | c-Jun Ser73 phosphorylation, western blot | – | 6 h, added: doxycycline | EC50 | ~500 nM
COCCC(=O)Nc1ccc([C@H]2[C@@H](F)[C@@H](F)C[C@@H](F)[C@H]2F)cc1 | – | liver microsome stability | human liver microsomes | 1 µM, without NADPH | hepatic clearance | 11 mL/min/kg
Cc1nc(NC(=O)N2CCC[C@H]2C(N)=O)sc1-c1ccnc(C(C)(C)C(F)(F)F)c1 | SNU-1076 | cell growth, CellTiter-Glo | – | 120 h | EC50 | 1140 nM
C=C(NC(=O)C(=C)NC(=O)c1csc(C2=N[C@@H]3c4csc(n4)[C@H]4NC(=O)c5csc(n5)[C@H]([C@](C)(O)[C@@H](C)O)NC(=O)[C@H]5CSC(=N5)/C(=C/C)NC(=O)[C@H]([C@@H](C)O)NC(=O)c5csc(n5)[C@]3(CC2)NC(=O)[C@H](C)NC(=O)C(=C)NC(=O)[C@H](C)NC(=O)[C@H]([C@@H](C)CC)N[C@@H]2C=Cc3c([C@H](C)O)cc(nc3[C@H]2O)C(=O)O[C@@H]4C)n1)C(N)=O | OCI | cell viability | – | – | EC50 | 300 nM
CN1CCN(C(=O)c2ccc([C@H]3[C@@H](F)[C@@H](F)C[C@@H](F)[C@H]3F)cc2)CC1=O | – | liver microsome stability | dog liver microsomes | 1 µM | hepatic clearance | 7.3 mL/min/kg
CCn1cc(-c2cc(Cn3ccoc3=N)cc3c2CCN([C@@H](C)c2cc(OC)ccn2)C3=O)c(C(F)(F)F)n1 | Li-7 | cell growth, inhibitor | – | 120 h | EC50 | 181 nM
C[C@]12CCCN1CC1=NNC(=O)c3cc(F)cc4[nH]c2c1c34 | SW1417 colorectal cancer cells | cell viability | – | concentration not given, added: with temozolomide | EC50 | > 3000 nM
COc1cnc2cccc(N3CCc4c(cc(Cn5ccnc5C)cc4-c4cn(C)nc4C(F)(F)F)C3=O)c2c1 | KLE | cell growth, inhibitor | – | 120 h | EC50 | 940 nM
CC[C@H](C)[C@H](NC(=O)[C@H](CCCNC(=N)N)NC(=O)[C@H](CCCNC(=N)N)NC(=O)[C@H](CC(C)C)NC(=O)CNC(=O)[C@H](CCC(N)=O)NC(=O)[C@@H](NC(=O)[C@@H](NC(=O)[C@H](Cc1c[nH]c2ccccc12)NC(=O)[C@@H](NC(=O)[C@H](CCC(=O)O)NC(=O)[C@@H]1CCCN1C(=O)[C@@H](N)CCCNC(=N)N)[C@@H](C)CC)[C@@H](C)CC)[C@@H](C)O)C(=O)NCC(=O)N[C@@H](CC(=O)O)C(=O)N[C@@H](CCC(=O)O)C(=O)N[C@@H](Cc1ccccc1)C(=O)N[C@@H](CC(N)=O)C(=O)N[C@@H](C)C(=O)N[C@@H](Cc1ccc(O)cc1)C(=O)N[C@@H](Cc1ccc(O)cc1)C(=O)N[C@@H](C)C(=O)N[C@@H](CCCNC(=N)N)C(N)=O | Pfeiffer, permeabilized | mitochondrial depolarization, BH3 profiling, JC-1 | – | 3 h | EC50 | 12000 ± 8000 nM
[Cl-].[Cl-].[Os+2].c1cnc2c(c1)ccc1cccnc12.c1cnc2c(c1)ccc1cccnc12.c1cnc2c(c1)ccc1cccnc12 | SK-MEL-28 | phototoxicity, resazurin | – | normoxia, added: green light 523 nm, 100 J/cm2, 20 mW/cm2 | EC50 | 86100 ± 4200 nM
CC1=C(CC(=O)O)c2cc(F)ccc2/C1=C\c1ccc([S+](C)[O-])cc1 (stereo not shown) | MM1.S bortezomib-resistant | cell death | – | – | EC50 | > 100000 nM

Excerpt of the above:
Compound | tested on | test | system | conditions | measurement | result
CN1CCN(C(=O)c2ccc([C@H]3[C@@H](F)[C@@H](F)C[C@@H](F)[C@H]3F)cc2)CC1=O | – | liver microsome stability | dog liver microsomes | 1 µM | hepatic clearance | 7.3 mL/min/kg
C[C@]12CCCN1CC1=NNC(=O)c3cc(F)cc4[nH]c2c1c34 | SW1417 colorectal cancer cells | cell viability | – | concentration not given, added: with temozolomide | EC50 | > 3000 nM
